Assay results from different studies.
± gives the spread as reported.
Tripartite terminase subunit 3 C-terminal nuclease domain: Tripartite terminase subunit 3, C-terminal nuclease domain (Human betaherpesvirus 5, UniProt P16732)
UniProt P16732, sequence (whole entry, looked up): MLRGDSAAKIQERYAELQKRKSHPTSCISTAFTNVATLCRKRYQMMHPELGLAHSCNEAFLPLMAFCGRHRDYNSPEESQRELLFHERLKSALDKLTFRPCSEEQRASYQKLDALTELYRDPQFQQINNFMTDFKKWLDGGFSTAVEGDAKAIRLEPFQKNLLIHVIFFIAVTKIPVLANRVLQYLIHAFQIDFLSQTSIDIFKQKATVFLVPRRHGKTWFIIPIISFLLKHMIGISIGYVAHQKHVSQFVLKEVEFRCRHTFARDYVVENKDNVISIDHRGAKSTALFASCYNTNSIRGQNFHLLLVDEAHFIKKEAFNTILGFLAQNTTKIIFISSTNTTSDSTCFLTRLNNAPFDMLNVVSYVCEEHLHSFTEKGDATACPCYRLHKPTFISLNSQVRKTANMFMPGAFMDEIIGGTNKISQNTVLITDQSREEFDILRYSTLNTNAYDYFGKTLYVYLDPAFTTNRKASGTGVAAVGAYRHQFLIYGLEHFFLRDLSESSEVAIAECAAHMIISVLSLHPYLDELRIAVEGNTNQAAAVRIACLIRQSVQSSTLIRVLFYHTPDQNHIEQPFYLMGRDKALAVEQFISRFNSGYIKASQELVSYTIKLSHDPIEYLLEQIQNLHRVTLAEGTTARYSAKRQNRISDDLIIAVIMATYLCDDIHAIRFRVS
DDB1/DCAF12: DDB1/DCAF12 (Homo sapiens, UniProt Q16531+Q5T6F0)
UniProt Q16531, sequence (whole entry, looked up): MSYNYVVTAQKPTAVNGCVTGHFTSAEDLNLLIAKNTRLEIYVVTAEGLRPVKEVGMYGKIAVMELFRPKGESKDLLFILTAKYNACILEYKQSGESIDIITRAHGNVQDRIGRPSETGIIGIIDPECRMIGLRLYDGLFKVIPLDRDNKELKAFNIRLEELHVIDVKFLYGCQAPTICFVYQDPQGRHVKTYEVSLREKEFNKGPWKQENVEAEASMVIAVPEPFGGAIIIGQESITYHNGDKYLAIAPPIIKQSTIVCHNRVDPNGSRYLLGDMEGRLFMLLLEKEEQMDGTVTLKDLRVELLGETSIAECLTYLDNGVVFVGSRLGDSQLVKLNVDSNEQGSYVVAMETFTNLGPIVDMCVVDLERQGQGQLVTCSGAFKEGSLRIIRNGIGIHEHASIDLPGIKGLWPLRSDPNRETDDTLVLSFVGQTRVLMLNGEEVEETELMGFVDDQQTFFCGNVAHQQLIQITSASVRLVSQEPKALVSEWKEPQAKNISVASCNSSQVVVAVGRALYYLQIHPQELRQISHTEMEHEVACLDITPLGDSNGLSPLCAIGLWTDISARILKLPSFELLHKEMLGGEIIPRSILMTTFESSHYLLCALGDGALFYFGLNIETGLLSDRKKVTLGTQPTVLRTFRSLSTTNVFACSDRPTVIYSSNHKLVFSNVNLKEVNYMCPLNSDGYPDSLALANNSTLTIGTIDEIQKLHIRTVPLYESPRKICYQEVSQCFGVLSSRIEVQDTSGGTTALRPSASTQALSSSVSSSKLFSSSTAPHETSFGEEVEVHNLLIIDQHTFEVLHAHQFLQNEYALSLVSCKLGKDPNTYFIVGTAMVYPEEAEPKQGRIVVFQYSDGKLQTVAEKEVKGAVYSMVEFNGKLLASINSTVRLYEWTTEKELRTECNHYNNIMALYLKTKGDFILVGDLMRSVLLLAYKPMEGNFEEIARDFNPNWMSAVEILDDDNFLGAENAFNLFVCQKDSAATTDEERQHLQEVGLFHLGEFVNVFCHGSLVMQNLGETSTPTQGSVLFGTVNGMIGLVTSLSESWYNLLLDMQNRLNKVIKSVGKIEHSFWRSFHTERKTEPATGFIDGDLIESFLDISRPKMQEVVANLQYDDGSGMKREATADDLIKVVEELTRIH
UniProt Q5T6F0, sequence (whole entry, looked up): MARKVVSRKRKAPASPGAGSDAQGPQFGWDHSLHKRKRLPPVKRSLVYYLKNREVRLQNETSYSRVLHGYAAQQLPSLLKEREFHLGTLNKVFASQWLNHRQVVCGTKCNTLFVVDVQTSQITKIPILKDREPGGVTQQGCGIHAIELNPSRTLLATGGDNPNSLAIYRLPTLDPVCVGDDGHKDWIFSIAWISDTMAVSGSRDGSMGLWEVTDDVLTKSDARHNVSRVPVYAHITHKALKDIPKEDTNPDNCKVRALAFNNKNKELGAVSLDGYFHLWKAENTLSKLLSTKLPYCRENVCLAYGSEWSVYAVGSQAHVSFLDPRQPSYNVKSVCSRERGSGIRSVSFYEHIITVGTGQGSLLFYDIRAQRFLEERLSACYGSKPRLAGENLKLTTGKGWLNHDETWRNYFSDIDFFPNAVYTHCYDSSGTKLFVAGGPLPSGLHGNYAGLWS
UniProt Q13093, sequence (whole entry, looked up): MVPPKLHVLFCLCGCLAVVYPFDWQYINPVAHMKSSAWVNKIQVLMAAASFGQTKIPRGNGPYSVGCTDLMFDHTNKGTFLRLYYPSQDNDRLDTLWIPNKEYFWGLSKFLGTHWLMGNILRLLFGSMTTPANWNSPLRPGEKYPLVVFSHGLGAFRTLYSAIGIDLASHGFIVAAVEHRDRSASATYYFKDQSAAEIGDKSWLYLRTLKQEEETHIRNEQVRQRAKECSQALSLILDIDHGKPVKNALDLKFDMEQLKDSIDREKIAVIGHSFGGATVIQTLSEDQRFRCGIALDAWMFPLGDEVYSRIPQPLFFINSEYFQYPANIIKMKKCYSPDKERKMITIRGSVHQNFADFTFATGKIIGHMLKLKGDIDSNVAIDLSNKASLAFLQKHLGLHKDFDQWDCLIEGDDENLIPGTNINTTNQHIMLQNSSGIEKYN
UniProt Q9NRM7, sequence (whole entry, looked up): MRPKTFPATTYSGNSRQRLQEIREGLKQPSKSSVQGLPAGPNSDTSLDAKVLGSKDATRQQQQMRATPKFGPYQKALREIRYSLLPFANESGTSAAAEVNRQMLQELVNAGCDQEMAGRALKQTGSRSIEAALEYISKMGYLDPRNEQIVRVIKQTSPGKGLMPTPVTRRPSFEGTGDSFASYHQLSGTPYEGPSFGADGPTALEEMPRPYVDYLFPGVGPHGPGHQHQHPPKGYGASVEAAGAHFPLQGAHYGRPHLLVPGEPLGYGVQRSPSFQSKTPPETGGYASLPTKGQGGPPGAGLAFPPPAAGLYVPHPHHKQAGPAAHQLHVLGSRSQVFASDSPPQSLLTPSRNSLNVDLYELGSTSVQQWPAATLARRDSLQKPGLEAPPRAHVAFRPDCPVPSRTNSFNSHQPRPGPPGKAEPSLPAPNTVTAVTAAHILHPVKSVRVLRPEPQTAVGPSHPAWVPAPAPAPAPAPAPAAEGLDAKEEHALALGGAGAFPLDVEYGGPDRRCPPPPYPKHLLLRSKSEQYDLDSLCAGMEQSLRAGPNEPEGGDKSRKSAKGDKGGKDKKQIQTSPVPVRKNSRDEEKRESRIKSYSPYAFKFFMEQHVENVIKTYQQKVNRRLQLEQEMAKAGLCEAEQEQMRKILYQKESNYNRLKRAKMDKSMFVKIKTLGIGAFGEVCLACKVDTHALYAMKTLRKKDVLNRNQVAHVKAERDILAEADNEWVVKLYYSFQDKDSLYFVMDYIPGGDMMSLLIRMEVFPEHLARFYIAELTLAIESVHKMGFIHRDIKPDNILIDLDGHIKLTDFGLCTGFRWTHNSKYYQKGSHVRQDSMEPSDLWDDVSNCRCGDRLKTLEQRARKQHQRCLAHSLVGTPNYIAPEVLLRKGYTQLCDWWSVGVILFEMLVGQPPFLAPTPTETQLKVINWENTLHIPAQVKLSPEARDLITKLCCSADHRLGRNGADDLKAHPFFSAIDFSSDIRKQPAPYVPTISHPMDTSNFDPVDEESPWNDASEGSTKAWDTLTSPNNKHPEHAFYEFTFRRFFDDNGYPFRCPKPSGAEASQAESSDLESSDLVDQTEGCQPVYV
UniProt P0A7B1, sequence (whole entry, looked up): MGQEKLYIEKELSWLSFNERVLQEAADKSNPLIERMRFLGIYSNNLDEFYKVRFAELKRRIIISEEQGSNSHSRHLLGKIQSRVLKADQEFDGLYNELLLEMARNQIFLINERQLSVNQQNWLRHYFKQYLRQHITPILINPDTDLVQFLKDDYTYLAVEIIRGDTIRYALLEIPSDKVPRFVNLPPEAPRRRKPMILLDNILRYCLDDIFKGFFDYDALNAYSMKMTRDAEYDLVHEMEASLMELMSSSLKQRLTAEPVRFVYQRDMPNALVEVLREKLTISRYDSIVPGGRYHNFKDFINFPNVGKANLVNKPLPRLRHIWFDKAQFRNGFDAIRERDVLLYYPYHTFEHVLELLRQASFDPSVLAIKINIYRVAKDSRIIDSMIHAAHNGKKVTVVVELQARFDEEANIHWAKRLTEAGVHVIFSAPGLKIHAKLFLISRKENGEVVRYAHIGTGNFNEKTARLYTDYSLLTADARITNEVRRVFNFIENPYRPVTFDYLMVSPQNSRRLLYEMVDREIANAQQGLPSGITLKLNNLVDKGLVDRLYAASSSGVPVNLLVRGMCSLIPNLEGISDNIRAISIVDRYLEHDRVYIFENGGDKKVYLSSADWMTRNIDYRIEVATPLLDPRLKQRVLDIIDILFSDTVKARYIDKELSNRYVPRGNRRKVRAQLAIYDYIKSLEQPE
UniProt P46098, sequence (whole entry, looked up): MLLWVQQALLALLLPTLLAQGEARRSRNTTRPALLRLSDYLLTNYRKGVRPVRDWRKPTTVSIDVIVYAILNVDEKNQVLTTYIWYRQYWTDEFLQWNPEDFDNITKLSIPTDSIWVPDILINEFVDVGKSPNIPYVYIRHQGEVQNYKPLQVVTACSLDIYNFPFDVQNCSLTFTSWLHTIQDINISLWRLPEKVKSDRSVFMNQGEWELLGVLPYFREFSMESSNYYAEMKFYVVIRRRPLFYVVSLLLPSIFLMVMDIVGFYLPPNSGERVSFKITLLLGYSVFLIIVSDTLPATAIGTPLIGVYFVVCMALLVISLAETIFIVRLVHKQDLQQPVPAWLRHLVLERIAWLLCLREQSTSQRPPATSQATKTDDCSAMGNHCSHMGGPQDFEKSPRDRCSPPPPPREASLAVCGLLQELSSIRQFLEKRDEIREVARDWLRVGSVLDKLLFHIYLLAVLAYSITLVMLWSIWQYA

Cc1c(Cc2cccc(N(C)S(=O)(=O)CCCNCCCCCC(=O)N3CCN(c4nc(N5CCOCC5)nc(-n5c(C(F)F)nc6ccccc65)n4)CC3)c2)c(=O)oc2cc(OC(=O)N(C)C)ccc12
IC50 (ERK; kinase activity, inhibitor): > 10 µM

O=c1[nH]c2sc(-c3ccc(F)cc3)cc2c(=O)n1O
IC50 (Tripartite terminase subunit 3 C-terminal nuclease domain; endonuclease activity, inhibitor; added: dsDNA substrate): 0.8 ± 0.14 µM

NCCCC[C@H](N)C(=O)N1CCC[C@H]1C(=O)NCC(=O)N[C@@H](CCC(=O)O)C(=O)N[C@@H](CO)C(=O)N[C@@H](CCC(=O)O)C(=O)N[C@@H](CCC(=O)O)C(=O)O
IC50 (DDB1/DCAF12; binding, TR-FRET competition): 4.96 µM

C#CCC(N)C(=O)O (racemic)
IC50 (cystathionine gamma-lyase (Toxoplasma gondii, UniProt A0A125YN40, N360S)): 0.6 ± 0.1 µM

C[C@H]1CN(c2n[nH]c3nc(N[C@H]4CC[C@H](NS(=O)(=O)CCC(F)(F)F)CC4)ncc23)CCO1
IC50 (MICOS complex subunit MIC19 (Homo sapiens, UniProt Q9NX63); biochemical): ≥ 20 µM

O=C(O)C(=Cc1ccccc1)CC(P(=O)(O)O)P(=O)(O)O
IC50 (ppk (Escherichia coli, UniProt P0A7B1); enzyme activity, inhibitor): 752 µM

OO
IC50 (Protein-arginine-phosphatase (ywle, Geobacillus stearothermophilus, UniProt S0F332); inhibitor): 58.8 ± 2.9 µM

C[C@@H](O)[C@@H](CO)NC(=O)[C@@H](CCCNC(=N)N)NC(=O)[C@@H]1CCCN1C(=O)[C@@H]1CSSC[C@H](NC(=O)[C@H](Cc2ccccc2)NC(=O)CN2CCN(CC(=O)O)CCN(CC(=O)O)CCN(CC(=O)O)CC2)C(=O)N[C@@H](Cc2ccc(O)cc2)C(=O)N[C@@H](Cc2ccccc2)C(=O)N[C@@H](CCC(N)=O)C(=O)N[C@@H](CC(N)=O)C(=O)N1 [gallium-68 labelled]
tissue uptake (healthy Wistar rat, muscle; intravenous, 8 MBq, 30 min, individual animals): 0.74 %ID/g

O=C1c2ccccc2C(c2ccccc2)C(=O)N1O (stereo not drawn)
IC50 (Tripartite terminase subunit 3 C-terminal nuclease domain; endonuclease activity, inhibitor; added: dsDNA substrate): 19 ± 4.2 µM

Cc1cc(C)c2sc(NC(=O)c3cc4cccnc4o3)nc2n1
IC50 (Genome polyprotein, NS2B-NS3 protease (ZIKV, UniProt A0A024B7W1); inhibitor): 168 ± 40 µM

O=S(=O)(F)Cc1ccccc1
IC50 (Pimeloyl-[acyl-carrier protein] methyl ester esterase (bioH, Escherichia coli, UniProt P13001); inhibitor): 1780 µM

O=C(NCCCN1CCCCC1)c1cc(Sc2ccc(Cl)cc2)nc2ccccc12
maximum response (Vero-E6; CellTiter-Glo ATP; 72 h, retest 8-point duplicates; reference: DMSO 0%, hyamine -100%, more negative, more toxic): -7.18%

N=C(N)NN
IC50 (polyamine oxidase (rat); inhibitor; ischemic brain homogenate; added: spermine): 400 µM

CC(=O)OCC(=O)[C@@]1(O)CC[C@H]2[C@@H]3CCC4=CC(=O)CC[C@]4(C)C3=CC[C@@]21C
IC50 (NR3C1 (Homo sapiens, UniProt P04150)): 1.7 µM

C[C@@H]1N/C(=C\[N+](=O)[O-])N(Cc2ccc(Cl)nc2)[C@@H]1C
Ki (radioligand binding; Musca domestica head membranes; added: [3H]imidacloprid): 0.000394 ± 0.000179 µM

O=C(c1ccc(Cl)cc1)N1CCN2C(=O)N(OC(=O)N3CCOc4ccccc43)C(=O)C2C1 (stereo not drawn)
median ratio (Kynurenine formamidase (AFMID, Homo sapiens, UniProt Q63HM1); enzyme activity, inhibitor, MS-based ABPP; SW-620 conditioned medium; 10 µM, 1 h, 37 °C; reference: compound over DMSO, lower = stronger inhibition): 1.26

CC(C)[C@@H]1NC(=O)[C@H](Cc2ccccc2)NC(=O)[C@@H]2NC(=O)[C@H](Cc3ccccc3)NC(=O)[C@@H]3CCCN3C(=O)CNC(=O)[C@H](Cc3ccccc3)NC(=O)[C@@H]3CNCCCC[C@@H](C(=O)O)NC(=O)[C@@H]4NC(=O)[C@H](CC(N)=O)NC(=O)CNC(=O)[C@H]([C@@H](O)C(=O)O)NC(=O)[C@H](CSC[C@@H](NC(=O)[C@H](CCC(N)=O)NC(=O)[C@H](CCCCNC(=O)c5ccc(NN)nc5)NC(=O)[C@@H](N)CS[C@H]4C)C(=O)N[C@@H](CS[C@H]2C)C(=O)N3)NC1=O [technetium-99m labelled]
tissue uptake (rat, saline control, skin; intravenous, 2 h after tracer, tracer 24 h after reperfusion): 0.13 ± 0.02 %ID/g

Cc1nccc2c1[nH]c1ccccc12
IC50 (Dyrk1a (Rattus norvegicus, UniProt Q63470); inhibitor): 1.82 ± 0.4 µM

CC[C@H](C)[C@H](NC(=O)[C@@H](N)CC(=O)O)C(=O)N[C@@H](CCCNC(=N)N)C(=O)N[C@@H](CCCCN)C(=O)N1CCC[C@H]1C(=O)NCC(=O)N[C@@H](CCC(=O)O)C(=O)N[C@@H](CO)C(=O)N[C@@H](CCC(=O)O)C(=O)N[C@@H](C)C(=O)O
IC50 (DDB1/DCAF12; binding, TR-FRET competition): 6.21 µM

Nc1c2c(nc3c1C(c1cccc([N+](=O)[O-])c1)c1ccc(OS(=O)(=O)c4ccc(F)cc4)cc1O3)CCCC2 (stereo not drawn)
IC50 (APP (Homo sapiens, UniProt P05067); Aβ42 self-aggregation, inhibitor, thioflavin T fluorescence): 4.28 µM

NCCOCC(=O)N1CCC[C@H](C(=O)NCc2nc(-c3ccc(C(F)(F)F)cc3)cs2)C1
IC50 (20S proteasome (Plasmodium falciparum, UniProt A0A5K1K7U1+Q8I261+Q8IJT1); without WLW-vs, added: Succ-LLVY-AMC 20 µM): 0.073 µM

Oc1ccc2c3c1O[C@H]1c4[nH]c5c(c4C[C@@]4(O)[C@@H](C2)N(CC2CC2)CC[C@]314)C[C@@]1(O)[C@H]2Cc3ccc(O)c4c3[C@@]1(CCN2CC1CC1)[C@H]5O4
IC50 (Apical membrane antigen 1 (Plasmodium falciparum, UniProt Q7KQK5); AMA1-RON2L binding, AlphaScreen; 3D7; added: 25 nM each protein): 20 µM

CC[C@H](C)[C@H](NC(=O)[C@H](Cc1ccccc1)NC(=O)[C@H](CCC(=O)O)NC(=O)[C@H](CCCNC(=N)N)NC(=O)[C@H](C)NC(=O)[C@H](C)NC(=O)[C@H](CCC(N)=O)NC(=O)[C@H](CCC(=O)O)NC(=O)[C@H](CCC(=O)O)NC(=O)[C@H](CC(C)C)NC(=O)[C@H](Cc1ccc(O)cc1)NC(=O)[C@H](CO)NC(=O)[C@H](CO)NC(=O)[C@@H](NC(=O)[C@H](CC(=O)O)NC(=O)[C@H](CO)NC(=O)[C@@H](NC(=O)[C@H](Cc1ccccc1)NC(=O)[C@@H](NC(=O)CNC(=O)[C@H](CCC(=O)O)NC(=O)[C@H](C)NC(=O)CCc1c[nH]cn1)[C@@H](C)O)[C@@H](C)O)C(C)C)C(=O)N[C@@H](C)C(=O)N[C@@H](Cc1c[nH]c2ccccc12)C(=O)N[C@@H](CC(C)C)C(=O)N[C@H](C(=O)N[C@@H](CCCNC(=N)N)C(=O)NCC(=O)N[C@@H](CCCNC(=N)N)C(=O)N[C@@H](CCCCNC(=O)COCCOCCNC(=O)COCCOCCNC(=O)CC[C@H](NC(=O)CCCCCCCCCCCCCCCCC(=O)O)C(=O)O)C(=O)NCC(=O)NCC(=O)N[C@@H](CO)C(=O)N[C@@H](CCCCNc1c(NCCCCCN(O)C(=O)CCC(=O)NCCCCCN(O)C(=O)CCC(=O)NCCCCCN(O)C(C)=O)c(=O)c1=O)C(=O)O)C(C)C [zirconium-89 labelled]
tissue uptake (gamma counting; rat, colon content; intravenous, 3 nmol/kg, 72 h): 0.1 %ID/g

N=C(N)NCCC[C@H](N)C(=O)N[C@@H](CCCCN)C(=O)N1CCC[C@H]1C(=O)NCC(=O)N[C@@H](CCC(=O)O)C(=O)N[C@@H](CO)C(=O)N[C@@H](CCC(=O)O)C(=O)N[C@@H](CCC(=O)O)C(=O)O
IC50 (DDB1/DCAF12; binding, TR-FRET competition): 0.771 µM

CN(C)C(=O)C(CCN1CCC(O)(c2ccc(Cl)cc2)CC1)(c1ccccc1)c1ccccc1
IC50 (Calcium-activated potassium channel subunit alpha-1, with LRRC26 γ1 subunit (KCNMA1, Homo sapiens, UniProt Q12791); BK channel conductance, inhibitor, inside-out patch clamp; BKα/γ1, Vm 10 mV, nominally Ca2+-free): 7.38 ± 2.4 µM

COc1cc2c(Oc3ccc4[nH]c(C)cc4c3F)ccnc2cc1OCC1(N)CC1
grade 3 Dizzy (paediatric recurrent refractory sarcoma; 8 mg/kg): 0%

CNC(C)Cc1ccc2nsnc2c1 (stereo not drawn)
IC50 (SLC6A2 (Homo sapiens, UniProt P23975)): 5.6 ± 1.8 µM

C#CCCCCCCn1nc(OC)oc1=O
IC50 (Uncharacterized hydrolase SAUSA300_2518 (Staphylococcus aureus, UniProt Q2FDS6); enzyme activity, inhibitor; USA300; 1 h preincubation, enzyme 0.5 nM, added: 20 µM 4-MU octanoate): > 50 µM

CCOP(=S)(OCC)SCS(=O)(=O)CC
IC50 (ache (Electrophorus electricus, UniProt O42275); enzyme activity, inhibitor): 2.9 ± 0.2 µM

CCC(C(=O)Nc1cc(NC2CCNCC2)ccc1C)n1cc(Cl)cc2nc(SCc3ccc(F)cc3)nc1-2 (stereo not drawn)
IC50 (USP1 (Homo sapiens, UniProt O94782); enzyme activity): > 100 µM

COc1cc(Nc2ncc(F)c(Nc3ccc4c(n3)NC(=O)C(C)(C)O4)n2)cc(OC)c1OC
IC50 (HTR3A (Homo sapiens, UniProt P46098)): > 10 µM

CC(=O)c1c(C)c2cnc(Nc3ccc(C4CCN(CCS(C)(=O)=O)CC4)cn3)nc2n(C2CCCC2)c1=O
Tmax (beagle dog, both sexes, fasted, blood; oral gavage, 15 mg/kg, acidified methylcellulose vehicle, mean): 56.4 min

NCCCC[C@H](N)C(=O)O
IC50 (DHDPS2 (Arabidopsis thaliana, UniProt Q9FVC8); inhibitor): 33 ± 2.5 µM

O=C(c1ccc(OCCN2CCCCC2)cc1)c1c(-c2ccc(O)cc2)sc2cc(O)ccc12
IC50 (Phospholipase D2 (Homo sapiens, UniProt O14939); enzyme activity, inhibitor; human cells): 17.7 µM

CC[C@H](C)[C@@H]1NC(=O)[C@@H]2CCCN2C(=O)[C@H](CC(C)C)NC(=O)[C@H](CC(C)C)NC(=O)CNC(=O)[C@@H](NC(=O)[C@@H](NC(=O)[C@H](CC(=O)O)NC(=O)CNC(=O)[C@@H](NC(=O)[C@H](C)NC(=O)CNC(=O)[C@H](CCCCN)NC(=O)[C@H](CC(C)C)NC(=O)[C@H](CC(C)C)NC(=O)[C@H](CCCCN)NC(=O)CNC(=O)[C@@H](NC(=O)[C@@H](N)CC(C)C)C(C)C)C(C)C)C(C)C)CSSC[C@@H](C(=O)O)NC1=O
log2 fold change (RNA-seq, refers to: Bax mRNA; mouse traumatic brain injury, frontal cortex and hippocampus; dose not given; reference: TBI plus compound vs TBI): 0.884

COc1c(CCC[P+](c2ccccc2)(c2ccccc2)c2ccccc2)cc2c(c1OC)OCO2.[I-]
LC50 (T47D; SRB): > -4 log M

COc1ccc(N2C(=O)N(c3c(C)cccc3Cl)Cc3cnc(Nc4ccc(C5CCN(C)CC5)cc4OC)nc32)nc1
inhibition (LATS2 (Homo sapiens, UniProt Q9NRM7); kinase activity; 0.5 µM): 2.53%

CCCCCCCCCCC[C@@H](C[C@@H]1OC(=O)[C@H]1CCCCCC)OC(=O)[C@H](CC(C)C)NC=O
IC50 (PLA2G7 (Homo sapiens, UniProt Q13093); enzyme activity, inhibitor; added: FP-biotin 1 µM): 0.26 µM

CO[C@H]1C[C@@H]2CC[C@@H](C)[C@@](O)(O2)C(=O)C(=O)N2CCCC[C@H]2C(=O)O[C@H]([C@H](C)C[C@@H]2CC[C@@H](OC(=O)NCCOCCOCCOCCOCCOCCOCCOCCOCCC(=O)N3CCc4cc(Cn5nc(-c6ccc7oc(N)nc7c6)c6c(N)ncnc65)ccc4C3)[C@H](OC)C2)C[C@@H](O)[C@H](C)/C=C(\C)[C@@H](O)[C@@H](OC)C(=O)[C@H](C)C[C@H](C)/C=C/C=C/C=C/1C
any TRAE incidence (phase 1 dose escalation; advanced solid tumour patients; intravenous, 10 mg weekly, any grade): 87.5%

Repeated from above:
CN(C)C(=O)C(CCN1CCC(O)(c2ccc(Cl)cc2)CC1)(c1ccccc1)c1ccccc1
IC50 (Calcium-activated potassium channel subunit alpha-1, with LRRC26 γ1 subunit (KCNMA1, Homo sapiens, UniProt Q12791); BK channel conductance, inhibitor, inside-out patch clamp; BKα/γ1, Vm 10 mV, nominally Ca2+-free): 7.38 ± 2.4 µM

O=S(=O)(F)Cc1ccccc1
IC50 (Pimeloyl-[acyl-carrier protein] methyl ester esterase (bioH, Escherichia coli, UniProt P13001); inhibitor): 1780 µM

NCCOCC(=O)N1CCC[C@H](C(=O)NCc2nc(-c3ccc(C(F)(F)F)cc3)cs2)C1
IC50 (20S proteasome (Plasmodium falciparum, UniProt A0A5K1K7U1+Q8I261+Q8IJT1); without WLW-vs, added: Succ-LLVY-AMC 20 µM): 0.073 µM
